Assay results collected from several papers.
Numbered parts are unrelated; each lists some results of a single study.
Chain of UniProt P62837 (whole entry, looked up): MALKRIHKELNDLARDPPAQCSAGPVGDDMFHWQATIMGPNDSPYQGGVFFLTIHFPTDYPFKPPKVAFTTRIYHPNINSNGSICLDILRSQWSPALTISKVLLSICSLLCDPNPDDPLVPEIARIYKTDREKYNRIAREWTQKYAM

Sample 1
Target: RING finger protein unkempt homolog, zinc fingers 1-6, SBP tag (UNK, Homo sapiens, UniProt Q9C0B0, residues 30-357)
Chain of UniProt Q9C0B0 (30-357, looked up): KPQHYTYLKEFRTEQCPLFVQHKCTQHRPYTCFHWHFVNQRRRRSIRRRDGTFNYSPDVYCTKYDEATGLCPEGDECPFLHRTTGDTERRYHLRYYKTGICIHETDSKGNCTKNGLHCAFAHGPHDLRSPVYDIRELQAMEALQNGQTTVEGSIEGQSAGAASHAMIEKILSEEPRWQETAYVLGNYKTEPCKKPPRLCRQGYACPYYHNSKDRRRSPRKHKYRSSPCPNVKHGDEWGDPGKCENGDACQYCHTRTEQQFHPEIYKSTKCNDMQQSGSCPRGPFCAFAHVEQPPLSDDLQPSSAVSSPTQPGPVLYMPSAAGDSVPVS
Method: RNA Bind-n-Seq
Form: RNA
Sample: in vitro
Concentration: 100 nM
Notes: RNA with constant flanks, vertebrate orthologous sites, ends assumed
Relative to: input RNA pool
Direction: higher = stronger binding
| Oligonucleotide | bound/input enrichment [ratio] |
| --- | --- |
| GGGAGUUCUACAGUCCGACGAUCGGGACGCUUUGAGGUAAAAAUUUUAAUUAAGAGCUGAUCACAAGCACAAAUCUUUCCCACUAGCCAUUUAAUAAGUUAAAAAAGAUACACAAACCUACUAGUCUUGAACAAACUGUCAUACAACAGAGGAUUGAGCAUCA | 2.01 |
| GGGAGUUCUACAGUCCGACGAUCAAUCAGUAGAAUUACAUAAUACUAAAGUUGCAGUUGAAAGGAUAUCCAAGUAUGUGUUGGUAGUUACUAAAGAAGUAUAGCUGGUAUUGCCUUGUAUUUAUAGCCCUUGUUUCAGGUUUCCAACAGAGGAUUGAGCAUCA | 0.477 |
| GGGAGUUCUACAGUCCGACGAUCCGUAAAAUAUUGGAUGCAGUGUAUAAAUUGUCCAAGGCAGUGACUUCAGCUUUAUAUAUAUUGUUAAUUUUAAAGUCGUUUACUUUUAUUUAAACUUCUAGAUUGGACUGUUUGCUAUUGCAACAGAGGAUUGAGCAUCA | 0.593 |
| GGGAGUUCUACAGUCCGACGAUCAUAACGUGUUUCUAUUUGUUGAGGAUAAUUUUGUGAUAAGCUUGUGUUAGAGUUAAAAAUUAGUGAAUUAAUUCCUCUUCAUUGUGUUGCUUUUGUUAUUGAAAAUAAAUGGAACUUUGUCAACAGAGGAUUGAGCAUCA | 0.316 |
| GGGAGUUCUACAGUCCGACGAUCUCCUCAACUUAUUCUAGCUUGUGGUCCUUCAAAAUUGGAUCAUACAUUAGUGCUAGAUUCUAGAAAUUUUCACUUCUCUUUCCACUGAUCAGAGAAACAGAUGUUAGAAACAGAAAUACACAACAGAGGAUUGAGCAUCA | 1.71 |
| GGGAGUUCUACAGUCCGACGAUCCAAAUCCUGGUUACUGUGAUAUUUAAAACAUGCACAGUACUCAUUUUUCCCAAAUGAUUCUAGUAAUUGCCUAGAAUUAUCUUUCUCUUACCUGUUAUUUAUCAAUUUUUCCCAGUAUUUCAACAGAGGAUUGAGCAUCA | 0.929 |
| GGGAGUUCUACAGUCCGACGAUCACCCCCUCCCUGGUGAGAGGGAGUGGGGGGAGCUCAGGAUGACCCUCAGCUGUUCCAAUCCAGUAUUUUUUUUUCUUUUUCAAAAUUACUGUAUUUAUUAUGACGAUGGUGACUCCCCGGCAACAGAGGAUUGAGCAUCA | 0.703 |
| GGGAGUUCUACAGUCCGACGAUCCCCCGAUUUUAGAUGUGAUAUCUUGGCUUUCAUUCCAGUUUGUUUUUGUCUUUUCUUGUUUAGAUACCAAUCUUUUAAAUUCUUGCAUUUUAGUAAGAAAGCUACCUUUUUAUGGAUGUUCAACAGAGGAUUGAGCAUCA | 1.62 |

Sample 2
Target: Prothrombin, mature alpha-thrombin (F2, Homo sapiens, UniProt P00734)
Method: aptamer microarray, sandwich
Form: DNA with 2'F-ANA
Sample: in vitro
Concentration: 200 nM
Notes: whole 15-mer aptamer, many near background
Together with: Cy3 exosite-II aptamer, 400 nM
Direction: higher = stronger binding
Oligonucleotide: GGTTGGTGTGGTTGG
| Modification | mean fluorescence intensity [a.u.] |
| --- | --- |
| 2'F-ANA at 1 2 3 5 6 8 13 15 | 54.5 |
| 2'F-ANA at 1 2 3 4 5 7 8 11 12 13 14 15 | 48.5 |
| 2'F-ANA at 1 2 3 4 5 11 14 | 41.7 |
| 2'F-ANA at 1 3 4 7 9 10 11 12 | 79.1 |
| 2'F-ANA at 4 6 7 9 10 12 13 14 15 | 65.4 |
| 2'F-ANA at 1 2 6 8 9 13 15 | 114 |
| 2'F-ANA at 6 7 8 10 11 15 | 174 |
| 2'F-ANA at 2 3 4 6 7 10 11 12 14 15 | 154 |

Mixed results
HLA class I histocompatibility antigen, A alpha chain allele A*26:03: HLA class I histocompatibility antigen, A alpha chain, allele A*26:03 (Homo sapiens, UniProt P04439)
| Sequence | target | test | test system | conditions | scale | measurement | result |
| --- | --- | --- | --- | --- | --- | --- | --- |
| QINELHHSK | HLA class I histocompatibility antigen, A alpha chain allele A*26:03 | peptide-MHC binding | peptide | concentration not given | – | binding | inactive |
| DDENSDNSNECVVCLSDLRDTLILPCRHLCLCTSCADTLRYQANNCPICRLPFRALLQIR (MGRN1 RING domain (UniProt O60291)) | UBE2D2 UBC core domain (UniProt P62837) | yeast two-hybrid | yeast | mostly zero background | relative to: not given, higher = stronger interaction | lacZ reporter activity | 0 |
| VTFFCVMTY | HLA class I histocompatibility antigen, A alpha chain allele A*26:03 | peptide-MHC binding | peptide | concentration not given | – | binding | inactive |

Repeated from above (sample 1):
| Oligonucleotide | bound/input enrichment [ratio] |
| --- | --- |
| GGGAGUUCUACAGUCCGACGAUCUCCUCAACUUAUUCUAGCUUGUGGUCCUUCAAAAUUGGAUCAUACAUUAGUGCUAGAUUCUAGAAAUUUUCACUUCUCUUUCCACUGAUCAGAGAAACAGAUGUUAGAAACAGAAAUACACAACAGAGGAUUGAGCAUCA | 1.71 |
